Experimental data from different studies.
Each line is one published result; not all experiments were run side by side. Values joined by “and” are separate records of one study, mostly repeats; a detail may differ. ± gives the spread as reported.

| Compound | cell line | test | setting | scale | viability |
| --- | --- | --- | --- | --- | --- |
| O=CCNCCOn1c(=O)n(OCCNCCO)c(=O)n(OCCNCCOn2c(=O)n(OCCNCCO)c(=O)n(OCCNCCO)c2=O)c1=O | HUVEC | cell growth or viability, MTT | 100 µg/mL, 72 h |  | 10.2% |
| N=C(N)NCCC[C@@H]1NC(=O)[C@@H](CCCNC(=N)N)NC(=O)[C@H](CCCNC(=N)N)NC(=O)[C@@H](Cc2ccc3ccccc3c2)NC(=O)[C@@H](Cc2ccc3ccccc3c2)NC(=O)[C@@H](Cc2ccc3ccccc3c2)NC(=O)[C@@H](CCCNC(=N)N)NC1=O | MRC5 | cell growth or viability, MTS | 150 µg/mL, 24 h |  | 61 to 70% |
| COc1ccc(C[C@H]2CO[C@H](c3ccc(OC)c(OC)c3)[C@H]2COC(=O)C(C)(C)C)cc1OC | HEK293/NF-κB-luc | CellTracker Green CMFDA | 20 µM, 4.5 h, serum-free medium | reference: stimulated untreated cells | 84 ± 7% |
| COc1cc(N2CCN(C(=O)CCOCCNC(=O)[C@@H]3CCCN3)CC2)ccc1Nc1ncc(Cl)c(Nc2ccccc2P(C)(C)=O)n1 | NCI-H3122 | CCK-8 | 5 µM, 48 h |  | 16% and 18% and 19% |
| N=C(N)NCCC[C@@H]1NC(=O)[C@H](CCCNC(=N)N)NC(=O)[C@@H](CCCNC(=N)N)NC(=O)[C@@H](CCCNC(=N)N)NC(=O)[C@@H](Cc2ccc3ccccc3c2)NC(=O)[C@H](Cc2c[nH]c3ccccc23)NC(=O)[C@@H](Cc2ccc3ccccc3c2)NC1=O | MRC5 | cell growth or viability, MTS | 200 µg/mL, 24 h |  | 61 to 65% |
| COc1cc(/C=C/C=C2\SC(=S)NC2=O)ccc1O | HEK-293T | CellTiter-Glo | 5 µM, 24 h, unit not given | reference: untreated | 1.01 and 1.05 |
| COc1ccc(CSC2C3=C(CCCC3=O)Oc3ccc(Br)cc32)cc1 (centres unmarked) | 3T3-L1 mature adipocytes | MTT | IC20, 6 days, lipolysis conditions | reference: untreated | 105% |
| COc1ccc(C[C@H]2CO[C@H](c3ccc(OC)c(OC)c3)[C@H]2COC(=O)C2CCCCCC2)cc1OC | HEK293/NF-κB-luc | CellTracker Green CMFDA | 20 µM, 4.5 h, serum-free medium | reference: stimulated untreated cells | 87 ± 4% |
| CC1(F)CN(C(=O)Cn2c(=O)c(C(=O)NCc3ccc(Cl)cc3)cc3nc(N4CCN(CCN)C4=O)cnc32)C1 | MRC5 | cell growth or viability, CCK-8 | 40 µM |  | 90% |
| N=C(N)NCCC[C@@H]1NC(=O)[C@H](CCCNC(=N)N)NC(=O)[C@@H](CCCNC(=N)N)NC(=O)[C@@H](CCCNC(=N)N)NC(=O)[C@@H](C(c2ccccc2)c2ccccc2)NC(=O)[C@@H](Cc2c[nH]c3ccccc23)NC(=O)[C@@H](C(c2ccccc2)c2ccccc2)NC1=O | MRC5 | cell growth or viability, MTS | 200 µg/mL, 24 h |  | 62% |
| CN1CCCNC(=O)c2cccc(c2)C(=O)NCCCN(C)CCCNc2cccc3c2C(=O)c2cccc(c2C3=O)NCCC1 | Ca9-22 | CCK-8 | 15 µM, 48 h | reference: untreated | 4.11% |

Excerpt of the above:
| Compound | cell line | test | setting | scale | viability |
| --- | --- | --- | --- | --- | --- |
| COc1ccc(CSC2C3=C(CCCC3=O)Oc3ccc(Br)cc32)cc1 (centres unmarked) | 3T3-L1 mature adipocytes | MTT | IC20, 6 days, lipolysis conditions | reference: untreated | 105% |
| COc1ccc(C[C@H]2CO[C@H](c3ccc(OC)c(OC)c3)[C@H]2COC(=O)C2CCCCCC2)cc1OC | HEK293/NF-κB-luc | CellTracker Green CMFDA | 20 µM, 4.5 h, serum-free medium | reference: stimulated untreated cells | 87 ± 4% |
